Results from different studies.
Each numbered part is a random draw from the data of one study; scales do not carry over between parts.

Block 1 — technique: RNA Bind-n-Seq; form: RNA; medium: in vitro; tested at: 200 nM; setting: whole 134-nt RNA, ends assumed; with: 150 mM KCl; baseline: input library; reading: higher = stronger binding
Target: Fragile X messenger ribonucleoprotein 1, C-terminal low-complexity region (Fmr1, Mus musculus, UniProt P35922)
Constant ends, left off below: GGGAGUUCUACAGUCCGACGAUC … UGGAAUUCUCGGGUGUCAAGG
For `UCCAGCCACUCACCGGCGAUCCAGGUCCAGAACCCCCCUGAUAAGCCGACGUAGGUCCAGAUCUCGAACUUCACCAGUCAGCCGGAGACG`, the log2 enrichment was 0.418.
`GUCCUGUGCUACACAUCGUAUGUACCGAAUCGGUUUUUUGGUUUUUUGGGUUUUUUGGAAAGUAUUAUGUUACGCCGUUCGGAUCUGCAC` gave a log2 enrichment of -0.683.
For `UUACUUUAGAGGAGGAUCUGAUGGAUAUGGCAGUGGACGUGGAUUUGGGGAUGGCUAUAAUGGGUAUGGAGGAGGACCUGGAGGUGGCAA`, the log2 enrichment was 0.349.
`ACCAUGCAGGUGAGCAUCUUUGGGAAGUGGGGCAAGGGGGGGAUAGGGAGGGGGGUAACACUUUGGGAACAGGUGGUCCCAGGUCGUUUC` gave a log2 enrichment of 0.79.
With `CUCAAGUCCUGUGCUACACAUCGUAUGUACCGAAUCGGUGGUGGAAAAAAAGGAAAGUAUUAUGUUACGCCGUUCGGAUCUGCACUUCCA` the log2 enrichment was -0.0315.
For `UGGCCCUGGUGGCAUCCGGGGAGGAAGAGGUGGCCUCAUGGAUCGUGGUGGUCCCGGUGGAAUGUUCAGAGGUGGCCGUGGUGGAGACAG`, the log2 enrichment was 0.178.
With `UGGGAGGUGGAUUUUGUUUAUUUUUUUAGCUCAUUUCCAGGGGUGGCAAUUUUUUUUUAAUAUGUGUCAUGAAUAAAGUUGUUUUUGAAA` the log2 enrichment was 0.375.
For `UCCUGUGCUACACAUCGUAUGUACCGAAUCGGGGAAAAAAGGGAAAAAAGGAAAAAAGGGAAAGUAUUAUGUUACGCCGUUCGGAUCUGC`, the log2 enrichment was -0.124.
For `UAGCAAGCCAAAUUACAGCAGCAGAUGGACCUGCAGAAAAAUCACAUUUUCCGUCUGACUCAAGGACUGCAAGAAGCUCUAGAUCGGGCU`, the log2 enrichment was -1.99.

Block 2 — technique: universal PBM; form: double-stranded DNA, one strand shown; medium: in vitro; tested at: not given; reading: higher = stronger binding
Target: Sal-like protein 4, full length isoform B (SALL4, Homo sapiens, UniProt Q9UJQ4-2, residues 1-616)
Setting: 8-mer, flanks averaged, mean of replicates
The E-score of `CACCAGTG` is reported as -0.177.
For `ACGTCTTC`, the E-score was 0.0481.
`AGAAGGTA` has an E-score of 0.165.
`CACACTTC` gave an E-score of -0.0124.
With `CAAGGTGG` the E-score was -0.133.
`AATCCGGG` gave an E-score of -0.307.
The E-score of `ACCGTTGC` is reported as -0.179.
For `AGGAATCA`, the E-score was 0.161.
For `AGTGTGGC`, the E-score was -0.104.
`AACTGTAT` has an E-score of 0.323.
`CGTTATTC` has an E-score of 0.122.
With `GAGTTCTA` the E-score was 0.0398.
The E-score of `AGCGTCCA` is reported as -0.203.
For `GCCGACCC`, the E-score was -0.372.
The E-score of `ATATCCAA` is reported as 0.23.
The E-score of `AAACCTCG` is reported as -0.0978.
For `AATAGTCA`, the E-score was 0.134.

Block 3 — technique: competition protein-binding microarray; form: double-stranded DNA, one strand shown; medium: in vitro; tested at: 2 µM; with: Cbf1 competitor, 0.05 µM; reading: higher = stronger binding; constant ends, left off below: … GTCTTGATTCGCTTGACGCTGCTG
Target: Phosphate system positive regulatory protein PHO4, full length, GST-tagged (PHO4, Saccharomyces cerevisiae, UniProt P07270, residues 1-312)
Setting: whole 60-bp probe, lowest competitor level
Construct (chain): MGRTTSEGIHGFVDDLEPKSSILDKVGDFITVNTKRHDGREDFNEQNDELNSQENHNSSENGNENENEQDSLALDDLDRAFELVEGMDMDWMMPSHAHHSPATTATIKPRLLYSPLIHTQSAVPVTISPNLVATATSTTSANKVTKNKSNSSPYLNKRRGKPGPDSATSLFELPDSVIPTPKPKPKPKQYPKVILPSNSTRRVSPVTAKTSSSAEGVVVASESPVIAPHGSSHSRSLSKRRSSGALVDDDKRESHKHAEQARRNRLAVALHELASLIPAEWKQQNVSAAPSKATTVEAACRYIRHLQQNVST
With `ATTACATGGTGCTTGCTCGGGCTTTTTGGGATAAGA` the fluorescence intensity was 4520 a.u.
`CCGACTGCGCAGCCCAACGTGCGGATAATTGGAGAC` has a fluorescence intensity of 15300 a.u.
The fluorescence intensity of `GTACACACAAGGCGTCACATGAATTCTTGCCAAGTT` is reported as 5220 a.u.
With `CTAACGTTGGAGGATCCCGTGACGGTGGAGTATCTC` the fluorescence intensity was 5210 a.u.
`CAGCTCGCCATCCTCCACGTTTTGGTAAGCTGCCGG` gave a fluorescence intensity of 12300 a.u.
For `TCGTCATTGTGGATACACGTGAGATTAATGCCTCAT`, the fluorescence intensity was 14700 a.u.
`GGGCTCTTTGTTTAGCATGTGCCTCATCTCTTTTTC` has a fluorescence intensity of 10500 a.u.
For `CTTCTGTAAATTTGTAGAGTGGGTGGACGCGCCCCG`, the fluorescence intensity was 3600 a.u.
For `CGGGGTTAAGTTTGCGGAGTGGGTGGCTTGCAGCAG`, the fluorescence intensity was 4210 a.u.
The fluorescence intensity of `TGGGAGGCACTGAAGTCCGTGCCGATTCCTCGACGC` is reported as 5180 a.u.
`TGCGCAACAACTTGACAGGTGGGTGTATGTCTAGAA` gave a fluorescence intensity of 6310 a.u.
With `GGCCTGGGTATTATCCTCATGACGCTCGTCAACAAC` the fluorescence intensity was 4030 a.u.
The fluorescence intensity of `AAGCAAGAACGAAAGCACGTTCTTGAAGATCTGCAT` is reported as 18000 a.u.
For `AAATTACTAAGTTGGTAGGTGGGTGACGCCGTATGA`, the fluorescence intensity was 4140 a.u.
For `TCAGGTAGATCTTAGCACGTGTGGAAGCGCATAACA`, the fluorescence intensity was 17500 a.u.

Block 4 — technique: protein binding microarray; form: double-stranded DNA, one strand shown; medium: in vitro; tested at: not given; baseline: not given; reading: higher = stronger binding
Target: Histone acetyltransferase KAT6A, both winged helices, GST fusion (KAT6A, Homo sapiens, UniProt Q92794, residues 1-181)
Setting: 8-mer, flanks averaged, mean of 2 arrays, mostly near background
Residues (chain): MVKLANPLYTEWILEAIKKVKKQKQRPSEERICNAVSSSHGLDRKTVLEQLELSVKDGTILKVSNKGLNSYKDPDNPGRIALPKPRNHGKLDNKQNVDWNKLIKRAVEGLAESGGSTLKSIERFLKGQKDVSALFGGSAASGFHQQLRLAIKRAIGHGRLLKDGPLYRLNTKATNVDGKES
With `AGATCTTG` the E-score was -0.2.
For `CCCAGCCC`, the E-score was -0.124.
`AGGGGGTA` has an E-score of -0.25.
The E-score of `ACGTTGAC` is reported as -0.085.
The E-score of `ACCTCGTA` is reported as -0.0664.
The E-score of `TACTTATA` is reported as 0.0189.
For `ACGGGAAC`, the E-score was 0.349.
With `AAAAACGA` the E-score was -0.0182.
For `GTCCTAAC`, the E-score was -0.0825.
`ATATCCAA` has an E-score of -0.0202.
`ATTTGTTA` gave an E-score of 0.0686.
With `TAGCATCA` the E-score was -0.0973.
The E-score of `CATAGCTC` is reported as -0.0824.
`AGTTAAAA` gave an E-score of -0.0872.
`TAAGTCGA` has an E-score of -0.14.
`GAGCAGGC` has an E-score of -0.00276.
`AATCCAGA` gave an E-score of -0.144.
The E-score of `AAATAAAA` is reported as -0.0691.

Block 5 — technique: RNA Bind-n-Seq; form: RNA; medium: in vitro; tested at: 365 nM; baseline: no-protein control; reading: higher = stronger binding
Target: RNA binding protein fox-1 homolog 2, RRM domain, GST-SBP tag (RBFOX2, Homo sapiens, UniProt O43251-10, residues 100-194)
Setting: natural RNA segment, single round, ends assumed
Constant ends, left off below: GGGAGUUCUACAGUCCGACGAUC … UGGAAUUCUCGGGUGCCAA
Target sequence (chain): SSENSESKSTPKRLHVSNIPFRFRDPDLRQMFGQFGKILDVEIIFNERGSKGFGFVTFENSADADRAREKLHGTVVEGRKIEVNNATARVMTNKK
`AACUCAUUGUUCUAGUGAAGAUUAUGUUAAGCAAGCCUAAAAAAAGAUGACAACCAGUUCAUACACAGAUUUCCCAUUAUAUUGUGUAUACACACACACAGGGACAUCAA` — result for “RBNS enrichment (R)”: 0.376.
`GUGACUAUCUUAAGAAUAUUAUUUCUUUUUUUAAAAAAGAAUAUUAGAGAGAAAGAGAGAGAGAGAGAGUUGGCAUAAGGACAGUCUUAUCUGUGUCAACCCUCUGCCUG` — result for “RBNS enrichment (R)”: 0.506.
Under “RBNS enrichment (R)”, `CAUCUCAAACCAUAUUCUGUGAAUCCAUCUCAUGGUCCACUCCUGGGCUGCGGAAGGUACAAGGCGAGGUUAUGGGGCUGCUCUUCACUUUUUGUUUUUAAAUGAAGACC` is recorded as 0.332.
`UUGGGUCUGUCGUCUCUCUCCGCCUAGCGACAGAUUCCUUCUAUUAAGGGAUUGGCUCGCUGAGUUCUAAGCUCUAAAUGGGUCAACUCCUUUGUUUUCCGCCUAGCGAC`: “RBNS enrichment (R)” 0.186.
For `ACAUUUAUUCACUUCCAAAUAUGUUUUAUGUAUACCCACAUACAGUGUGUGGGAUUACAGCCAAAGUAUACUUGUCAACAUAUACGAAGUCUCUAGUCCUAACUUUUAAA`, “RBNS enrichment (R)” read 0.372.
`GGUGAUGGGCUUUGUGCCCACUCCAGAGAUAUUGUGGGAGACAAAUUCUUUUAACAGCCUGUCCUCCCGGCAUCAGGAGUCAUUGAACAAUCAUGGAUUGUUGUGUUUGG` — result for “RBNS enrichment (R)”: 0.616.
`GGUGUGUUAAAUACCAAGAUUAUUGACGUAUAUACUAAUCAGCUCCAAAUCACAUACAGUUUAAUCUUUAUUUUUUUAAUUUAAAGAAAUCAUGUUUAAAAUGAUAAAAC` — result for “RBNS enrichment (R)”: 0.46.
`GGUAGUAGUGAAAAUCAGGUUUGCUGUGUUCUGCUUUGAGGCCUGGAAUCUUUUAUCAUUAAACACCUAGUACGAAGCAUUUGCAGGAACCUACUGUGCAGUAUCAUAGA` — result for “RBNS enrichment (R)”: 0.45.

Repeated from above (block 3):
`CAGCTCGCCATCCTCCACGTTTTGGTAAGCTGCCGG` gave a fluorescence intensity of 12300 a.u.
For `TCGTCATTGTGGATACACGTGAGATTAATGCCTCAT`, the fluorescence intensity was 14700 a.u.
`GGGCTCTTTGTTTAGCATGTGCCTCATCTCTTTTTC` has a fluorescence intensity of 10500 a.u.
For `CTTCTGTAAATTTGTAGAGTGGGTGGACGCGCCCCG`, the fluorescence intensity was 3600 a.u.
For `CGGGGTTAAGTTTGCGGAGTGGGTGGCTTGCAGCAG`, the fluorescence intensity was 4210 a.u.
The fluorescence intensity of `TGGGAGGCACTGAAGTCCGTGCCGATTCCTCGACGC` is reported as 5180 a.u.
`TGCGCAACAACTTGACAGGTGGGTGTATGTCTAGAA` gave a fluorescence intensity of 6310 a.u.
With `GGCCTGGGTATTATCCTCATGACGCTCGTCAACAAC` the fluorescence intensity was 4030 a.u.
The fluorescence intensity of `AAGCAAGAACGAAAGCACGTTCTTGAAGATCTGCAT` is reported as 18000 a.u.
For `AAATTACTAAGTTGGTAGGTGGGTGACGCCGTATGA`, the fluorescence intensity was 4140 a.u.
For `TCAGGTAGATCTTAGCACGTGTGGAAGCGCATAACA`, the fluorescence intensity was 17500 a.u.
